Results from different studies.
Compare with care: the assays were run in different laboratories.
Observed: metabolic stability
Host: human
Sample: liver microsomes

Structure (SMILES) = CCC1CC2C(C)=CC3C(=O)CCCC3C=CC(C)=CC2C(=O)O1 (stereo not drawn); conditions = 1 µM, 30 min, pH 7.4; compound remaining = 7.12%
Structure (SMILES) = COc1cc(C)c(-c2ccc(O)c3c2C[C@@H](C)N[C@@H]3C)c2cccc(O)c12 (single isomer, unassigned); conditions = 1 µM, 30 min; compound remaining = 83%
Structure (SMILES) = COc1ccc(S(=O)(=O)Nc2ccc(NS(=O)(=O)c3ccc(OC)cc3)c3ccccc23)cc1; conditions = 10 µM, 30 min, pH 7.4; compound remaining = 5.6%
Structure (SMILES) = CC1=N[C@H](C)Cc2c(-c3ccc(C)cc3)ccc(O)c21; conditions = 1 µM, 30 min; compound remaining = 71%
Structure (SMILES) = Clc1ccc2c(c1)nc(N1CC3CNCC3C1)n2Cc1ccccc1 (stereo not drawn); conditions = 0.1 µM, 30 min, pH 7.4; compound remaining = 92.2%
Structure (SMILES) = CC(C)Cn1c(SCC(=O)N2CCc3ccccc3C2)nc2cc(Cl)ccc2c1=O; conditions = 1 h; compound remaining = 0.1%
Structure (SMILES) = COc1ccc(S(=O)(=O)Nc2ccc(NS(=O)(=O)c3cnn(C)c3)cc2CCC(=O)O)cc1; conditions = 10 µM, 30 min, pH 7.4; compound remaining = 61.2%
Structure (SMILES) = Clc1ccc2c(c1)nc(NCC1CCCN1)n2Cc1ccccc1 (stereo not drawn); conditions = 0.1 µM, 30 min, pH 7.4; compound remaining = 98.9%
Structure (SMILES) = Brc1ccccc1-c1nnc(CSc2nnnn2-c2ccccc2)o1; conditions = 1 h; compound remaining = 6.6%
